Experimental data gathered from unrelated publications.
Compare with care: the assays were run in different laboratories. ± gives the spread as reported.
Organism: HIV-1

SMILES | assay | test system | conditions | how to read | endpoint | value
CC[C@H](C)[C@H](NC(=O)[C@H](C)NC(=O)[C@H](CCC(=O)O)NC(C)=O)C(=O)NC1CCCC=CCCCC(C(=O)N[C@@H](CCC(N)=O)C(=O)N[C@@H](CC(C)C)C(=O)N[C@@H](CC(C)C)C(=O)N[C@@H](Cc2ccccc2)C(=O)N[C@H](C(=O)N[C@@H](Cc2c[nH]cn2)C(=O)N[C@@H](Cc2ccccc2)C(=O)N[C@@H](CCCNC(=N)N)C(=O)N[C@H](C(=O)NCC(N)=O)[C@@H](C)CC)[C@@H](C)CC)NC(=O)[C@H](CC(C)C)NC(=O)[C@H]([C@@H](C)CC)NC(=O)[C@H](CCCNC(=N)N)NC1=O (stereo partly drawn) | viral replication, luciferase reporter | MT-4, NL4-3 | – | – | active concentration | > 2.5 µM
CC[C@H](C)[C@H](N)C(=O)N[C@@H](CC(N)=O)C(=O)N[C@@H](CC(N)=O)C(=O)N[C@H](C(=O)N1CC(n2cc([C]34[CH]5[CH]6[CH]7[CH]3[Fe]6754389%10[CH]4[CH]3[CH]8[CH]9[CH]4%10)nn2)C[C@H]1C(=O)N[C@@H](Cc1c[nH]c2ccccc12)C(N)=O)[C@@H](C)CC (stereo partly drawn) | viral infection | Bal.01 | in mixture with other component | reference: compound alone | potency fold improvement | ~7 fold
CC(C)C[C@H](NC(=O)[C@H](CCCCN)NC(=O)[C@H](CC(C)C)NC(=O)[C@]1(C)CCCC=CCCC[C@](C)(N)C(=O)N[C@@H](C)C(=O)N[C@@H](Cc2ccc(O)cc2)C(=O)N[C@@H](Cc2ccccc2)C(=O)N1)C(=O)N[C@@H](C)C(=O)NCC(=O)N[C@@H](CCCNC(=N)N)C(=O)N[C@@H](Cc1c[nH]c2ccccc12)C(N)=O | – | – | – | – | EC50 | 4000 nM
CC(=O)N[C@@H](CS)C(=O)N[C@@H](CO)C(=O)N[C@@H](CO)C(=O)N[C@@H](Cc1c[nH]c2ccccc12)C(=O)N[C@@H](Cc1ccc(O)cc1)C(=O)N1CCC[C@H]1C(=O)N[C@@H](Cc1ccccc1)C(=O)N[C@@H](CO)C(=O)N[C@@H](CCC(N)=O)C(=O)N[C@@H](Cc1ccc(O)cc1)C(=O)N[C@@H](CCC(N)=O)C(=O)N[C@@H](Cc1c[nH]c2ccccc12)C(=O)N[C@@H](Cc1c[nH]c2ccccc12)C(=O)N[C@@H](CCCCN)C(N)=O | – | NL4-3 (X4) | concentration not given | – | neutralisation activity | active
O=C(NCc1ccc(F)cc1F)c1c(O)c2cccnc2n(O)c1=O | viral infectivity | integrase R263K | – | – | EC50 | 36 ± 8 nM
COc1ccc(-n2c(SCCCN3CCOCC3)nnc2[C@H](Cc2ccccc2)NC(=O)Cc2c(C)[nH]c3ccccc23)cc1 | – | MT-4, wild type | – | reference: CC50 over EC50 | selectivity index | 83
Cl.Cl.Cl.Cl.Cl.Cl.Cl.Cl.Cl.Cl.Cl.Cl.NC[C@@H]1O[C@H](O[C@H]2[C@@H](O)[C@H](O[C@@H]3[C@@H](O)[C@H](N)C[C@H](N)[C@H]3O[C@H]3O[C@H](CN)[C@@H](O)[C@H](O)[C@H]3N)O[C@@H]2Cn2cc(CCCCCCc3cn(C[C@H]4O[C@@H](O[C@@H]5[C@@H](O)[C@H](N)C[C@H](N)[C@H]5O[C@H]5O[C@H](CN)[C@@H](O)[C@H](O)[C@H]5N)[C@H](O)[C@@H]4O[C@H]4O[C@@H](CN)[C@@H](O)[C@H](O)[C@H]4N)nn3)nn2)[C@H](N)[C@@H](O)[C@@H]1O | reverse transcriptase release | MT-2, NL4-3 | concentration not given, day 4 | reference: virus control | protection | 90%
CN1CCn2cc(C(=O)NCc3ccc(F)cc3F)c(=O)c(O)c2C1=O | single-round infection | – | integrase G140S/Q148H vector | reference: cpd over cabotegravir | fold loss of potency | ~4 fold
CC(=O)N[C@@H](CS)C(=O)N[C@@H](CO)C(=O)N[C@@H](CO)C(=O)N[C@@H](Cc1c[nH]c2ccccc12)C(=O)N[C@@H](Cc1ccccc1)C(=O)N1CCC[C@H]1C(=O)N[C@@H](Cc1ccccc1)C(=O)N[C@@H](CO)C(=O)N[C@@H](CCC(N)=O)C(=O)N[C@@H](Cc1ccc(O)cc1)C(=O)N[C@@H](CCC(N)=O)C(=O)N[C@@H](Cc1c[nH]c2ccccc12)C(=O)N[C@@H](Cc1c[nH]c2ccccc12)C(=O)N[C@@H](CCCCN)C(N)=O | – | 89.6 (R5/X4) | concentration not given | – | neutralisation activity | inactive
CC(=O)CCC1C(=O)NC(C(C)C)C(=O)NC(Cc2cc(O)cc(F)c2)C(=O)N2CCCC(N2)C(=O)OC(C(C)=CC=CC(=O)N2CCCCO2)CC=CC=CC(O)C(C)C1O (stereo not drawn) | viral replication | CD4 HeLa | – | – | maximal inhibition | > 95%
CC(C)N1CCn2cc(C(=O)NCc3ccc(F)cc3F)c(=O)c(O)c2C1=O | single-round infection | – | integrase G140S/Q148R vector | reference: cpd over cabotegravir | antiviral potency ratio | > 36
CC[C@H](C)[C@H](N)C(=O)N[C@@H](CO)C(=O)N[C@@H](Cc1ccccc1)C(=O)N[C@@H]1CSCc2ccc(cc2)-c2ccc(cc2)CSC[C@@H](C(=O)N[C@@H](CCC(=O)O)C(=O)N[C@@H](CO)C(=O)NCC(=O)N[C@@H](CO)C(N)=O)NC(=O)[C@H](Cc2ccc(O)cc2)NC(=O)[C@H](Cc2ccc(O)cc2)NC(=O)[C@H](CC(=O)O)NC(=O)[C@H](CC(C)C)NC(=O)[C@H](CC(C)C)NC(=O)[C@H](CCC(=O)O)NC1=O | viral entry, single-cycle pseudovirus | Env HIV-25925-2, subtype C | – | – | IC50 | 1100 ± 200 nM
